Measured values pooled from the literature.
Protocols differ between the studies behind these lines.

SMILES | cell line | assay | setting | how to read | quantity | result
Cc1ncsc1-c1ccc(C(C)NC(=O)C2CC(O)CN2C(=O)C(NC(=O)CCCCCCCCCCN2CCCC(Nc3ncc(Cl)c(Nc4ccccc4S(=O)(=O)C(C)C)n3)C2)C(C)(C)C)cc1 (stereo not drawn) | 22Rv1 | RNA-seq, refers to: PAX1 mRNA | concentration not given | relative to: DMSO | log2 fold change | -1.81
CCN(C(=O)c1cc(F)ccc1Oc1nncnc1N1CCC2(C1)CN([C@H](CCCN(C)CCOC)C(C)C)C2)C(C)C | SK-N-AS | cell growth | 168 h | – | GI50 | > 10 µM
COc1ccccc1-c1ccncc1C(=O)Nc1nnc(OCc2ccc(Cl)cc2)s1 | PEO1 BRCA2-mutant | – | 0.5 µM, together with: olaparib 0.25 µM | – | colony survival | 4.84%
CCN(CC)CC(=O)Nc1cccc(-n2cc(-c3ccc4ccc(-c5cn(-c6cccc(NC(=O)CN(CC)CC)c6)nn5)cc4c3)nn2)c1 | RCC4 | PCR angiogenesis array, refers to: PGF | 5 x IC50, 2 h, normoxia | relative to: untreated | fold regulation | -1.27
CO[C@@H]1[C@@H](OC(N)=O)[C@@H](O)[C@H](Oc2ccc3c(O)c(NC(=O)c4ccc(O)c(CC=C(C)C)c4)c(=O)oc3c2C)OC1(C)C | DLD-1 parental | – | 200 µM, replicate 1 | – | colony count | 0.1
CN1CCCNC(=O)c2cccc(c2)C(=O)NCCCN(C)CCCNc2cccc3c2C(=O)c2cccc(c2C3=O)NCCC1 | SAS | RNA-Seq, refers to: PIBF1 mRNA | 1 µM, 6 h | relative to: untreated cells | log2 fold change | -1.13
CC(C)c1ccc(N(C)c2ccc3c(c2)OCC[C@H]3CNc2cnccc2C(=O)O)cc1 | T24 | cell growth or viability, ATP luminescence | 7 days | – | IC50 | ≥ 10000 nM
CNS(=O)(=O)Nc1nccc(Cc2c(C)c3ccc(Oc4ncccc4F)cc3oc2=O)c1F | SW626 | cell viability | 7 days | – | IC50 | 2.45 nM
Cn1ncc2cc(-c3cncc(Cl)c3N3CCC4(CCNC4=O)CC3)ccc21 | LS174T | gene expression, microarray, refers to: CCDC80 mRNA | concentration not given, 4 h | relative to: untreated cells | log2 fold change | 2.51

Repeated from above:
SMILES | cell line | assay | setting | how to read | quantity | result
Cc1ncsc1-c1ccc(C(C)NC(=O)C2CC(O)CN2C(=O)C(NC(=O)CCCCCCCCCCN2CCCC(Nc3ncc(Cl)c(Nc4ccccc4S(=O)(=O)C(C)C)n3)C2)C(C)(C)C)cc1 (stereo not drawn) | 22Rv1 | RNA-seq, refers to: PAX1 mRNA | concentration not given | relative to: DMSO | log2 fold change | -1.81
